Assay results from different studies.
Compare with care: the assays were run in different laboratories.
PIK3CD: Phosphatidylinositol 4,5-bisphosphate 3-kinase catalytic subunit delta isoform (PIK3CD, Homo sapiens, UniProt O00329)
Sequence of UniProt O00329 (whole entry, looked up): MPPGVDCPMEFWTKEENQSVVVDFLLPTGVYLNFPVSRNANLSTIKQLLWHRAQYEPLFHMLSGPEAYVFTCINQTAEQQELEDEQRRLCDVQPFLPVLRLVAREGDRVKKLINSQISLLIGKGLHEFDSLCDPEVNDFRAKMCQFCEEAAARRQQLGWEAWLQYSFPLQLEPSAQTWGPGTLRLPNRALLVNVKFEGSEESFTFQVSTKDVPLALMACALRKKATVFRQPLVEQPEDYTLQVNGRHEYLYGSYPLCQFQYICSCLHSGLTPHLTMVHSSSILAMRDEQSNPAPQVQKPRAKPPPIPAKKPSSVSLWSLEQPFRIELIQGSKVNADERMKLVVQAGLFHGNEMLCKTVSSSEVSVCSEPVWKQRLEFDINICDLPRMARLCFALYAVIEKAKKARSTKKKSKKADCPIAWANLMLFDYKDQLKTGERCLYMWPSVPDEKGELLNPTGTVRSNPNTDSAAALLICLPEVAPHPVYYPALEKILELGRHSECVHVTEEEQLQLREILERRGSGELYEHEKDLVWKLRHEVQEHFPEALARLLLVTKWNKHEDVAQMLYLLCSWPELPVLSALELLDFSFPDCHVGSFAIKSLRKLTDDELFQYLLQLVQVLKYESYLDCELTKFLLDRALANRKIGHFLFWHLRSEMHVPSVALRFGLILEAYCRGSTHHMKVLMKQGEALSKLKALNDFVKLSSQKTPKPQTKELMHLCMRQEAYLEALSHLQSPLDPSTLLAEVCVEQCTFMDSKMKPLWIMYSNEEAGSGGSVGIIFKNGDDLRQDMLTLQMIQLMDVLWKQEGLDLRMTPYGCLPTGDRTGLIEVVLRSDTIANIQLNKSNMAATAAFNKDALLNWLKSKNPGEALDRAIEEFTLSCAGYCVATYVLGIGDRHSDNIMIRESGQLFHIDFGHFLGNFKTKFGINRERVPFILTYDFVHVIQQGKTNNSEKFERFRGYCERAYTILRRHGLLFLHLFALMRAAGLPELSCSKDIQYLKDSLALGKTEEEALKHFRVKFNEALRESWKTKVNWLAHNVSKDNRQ

CC(=O)c1cnc(N)nc1N1CC[C@H]1c1nn2ccc(Cl)c2c(=O)n1-c1ccccc1 — IC50 (PIK3CD; kinase binding, KiNativ; human PBMC; intact cells, uncorrected for dilution): 47 nM
O=C1/C(=N\c2ccc(Cl)cc2Br)c2ccccc2N1Cc1ccccc1 (mixture of isomers) — IC50 (PIK3CD; enzyme activity, inhibitor, ADP detection): 517 nM
Cc1nc(Nc2ccc3c(c2)/C(=C/c2c[nH]c4ccccc24)C(=O)N3)c2ccccc2n1 — IC50 (PIK3CD; enzyme activity, inhibitor, ADP detection): > 1000 nM
CCN(CC)CC(=O)Nc1cccc(-n2cc(-c3ccc4ccc(-c5cn(-c6cccc(NC(=O)CN(CC)CC)c6)nn5)cc4c3)nn2)c1 — IC50 (PIK3CD; enzyme activity, inhibitor): > 10000 nM
Cc1nc(N(C)c2ccc3c(c2)/C(=C/c2ccccc2C)C(=O)N3C)c2ccccc2n1 — IC50 (PIK3CD; enzyme activity, inhibitor, ADP detection): > 1000 nM
Cc1ccc(CN2C(=O)C3(c4ccccc42)C(c2ccc(F)cc2)NC2(C(=O)N(C(=O)CCc4ccccc4)c4ccccc42)N3Cc2ccc(F)cc2)cc1 (stereo not shown) — IC50 (PIK3CD; enzyme activity, inhibitor, ADP detection): 127 nM
Cc1nn(-c2cccc(N)c2)c(=O)c2cnc(Nc3ccc(N4CCNCC4)cc3)nc12 — IC50 (Phosphatidylinositol 4,5-bisphosphate 3-kinase catalytic subunit delta isoform, with p85 alpha (PIK3CD, Homo sapiens, UniProt O00329); inhibitor; with PIK3R1 (p85α)): > 10000 nM
O=C1/C(=N\c2ccc(Cl)cc2Br)c2ccccc2N1C(=O)c1ccccc1 — IC50 (PIK3CD; enzyme activity, inhibitor, ADP detection): 575 nM
COc1ccccc1/C=C1\C(=O)N(C)c2ccc(N(C)c3nc(C)nc4ccccc34)cc21 — IC50 (PIK3CD; enzyme activity, inhibitor, ADP detection): 440 nM
CC(=O)N1c2ccc(-c3ccc(CNC(=O)c4cn5cc(-c6cnc(N)nc6)nc(N6CCOCC6)c5n4)cc3)cc2CC[C@@H]1C — IC50 (PIK3CD; kinase activity, inhibitor, Kinase-Glo): 45 nM

Some of these lines once more:
CCN(CC)CC(=O)Nc1cccc(-n2cc(-c3ccc4ccc(-c5cn(-c6cccc(NC(=O)CN(CC)CC)c6)nn5)cc4c3)nn2)c1 — IC50 (PIK3CD; enzyme activity, inhibitor): > 10000 nM
